Results pooled from the literature.
Every numbered part comes from another study and shows a few of its results, in no order. Substitutions count along the parent as printed.

Block 1 — target: tungstate, free oxyanion; technique: microfluidic competitive inhibition; matrix: in vitro, cell-free expressed; concentration: not given; reading: lower = stronger binding; endpoint: oxyanion analog dissociation constant
Setting: derived from inhibition constants, unchanged parent 2230 nM
Starting sequence: PafA, mature enzyme, eGFP fusion (Elizabethkingia meningoseptica, UniProt Q9KJX5); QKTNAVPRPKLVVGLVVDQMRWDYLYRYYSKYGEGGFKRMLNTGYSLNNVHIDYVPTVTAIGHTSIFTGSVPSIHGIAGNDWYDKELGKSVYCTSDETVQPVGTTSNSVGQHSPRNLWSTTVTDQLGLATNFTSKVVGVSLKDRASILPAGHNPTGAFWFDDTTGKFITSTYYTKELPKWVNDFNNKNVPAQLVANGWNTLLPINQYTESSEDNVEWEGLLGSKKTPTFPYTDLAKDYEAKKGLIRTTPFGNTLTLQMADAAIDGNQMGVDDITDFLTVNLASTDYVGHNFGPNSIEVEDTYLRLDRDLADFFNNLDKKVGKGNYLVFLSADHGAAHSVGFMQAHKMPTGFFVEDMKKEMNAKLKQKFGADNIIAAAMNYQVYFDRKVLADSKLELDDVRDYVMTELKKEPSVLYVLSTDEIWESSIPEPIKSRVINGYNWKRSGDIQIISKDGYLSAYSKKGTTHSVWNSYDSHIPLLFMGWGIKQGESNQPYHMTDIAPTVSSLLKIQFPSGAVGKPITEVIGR
P519V: 2.36 µM
M40V: 2.41 µM
V403G: 2.29 µM

Block 2 — technique: DHFR PCA, deep sequencing; matrix: yeast; together with: (+)-ABA 4.8 µM; baseline: wild-type fitted maximum; reading: higher = stronger binding; endpoint: relative binding score
Target: ABI1, truncated, D143A, DHFR fusion (Arabidopsis thaliana)
Setting: methotrexate growth selection, single substitutions
Starting sequence: PYL1, truncated, DHFR fusion (Arabidopsis thaliana); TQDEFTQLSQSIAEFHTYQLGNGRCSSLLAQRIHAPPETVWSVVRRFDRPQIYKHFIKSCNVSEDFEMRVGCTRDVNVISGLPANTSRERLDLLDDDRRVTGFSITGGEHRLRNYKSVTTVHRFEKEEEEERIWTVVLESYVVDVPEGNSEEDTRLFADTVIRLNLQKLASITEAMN
S104Q: -5.15%
I12D: -2.92%
L156F: 60.5%
Y115S: -0.405%
V143N: -6.1%
T160D: -5.8%
S9V: 54.1%
P146G: 12.6%

Block 3 — technique: protein binding microarray; form: double-stranded DNA, one strand shown; matrix: in vitro; concentration: not given; baseline: not given; reading: higher = stronger binding; endpoint: E-score
Target: Histone acetyltransferase KAT6A, both winged helices, GST fusion (KAT6A, Homo sapiens, UniProt Q92794, residues 1-181)
Setting: 8-mer, flanks averaged, mean of 2 arrays, mostly near background
Target sequence (chain): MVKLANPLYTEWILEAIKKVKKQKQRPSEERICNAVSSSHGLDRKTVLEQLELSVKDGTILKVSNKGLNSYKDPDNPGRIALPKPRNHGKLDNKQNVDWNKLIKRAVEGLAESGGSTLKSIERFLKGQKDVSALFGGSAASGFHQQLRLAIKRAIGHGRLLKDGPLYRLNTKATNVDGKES
GCACGCTA: 0.155
GAACCATA: -0.0828
CAGTAATA: -0.065
GCATCTAA: -0.0529
CTCCACAC: -0.125
AGAACAGG: -0.0931
CGCCGGTA: 0.31
CTCGAAGA: -0.0937

Other studies, line by line
TMED10 (Homo sapiens, UniProt P49755)
interaction screen (TMED4 (Homo sapiens, UniProt Q7Z7H5); cross-linking MS; hits only): cross-linked

PhoQ, residues 284 288 289 292 302 303 AGGLSV
fold induction (PhoP, residues 12 14 15 18 19 FWNTL (Escherichia coli, UniProt P23836); Sort-seq, measured: YFP reporter; E. coli; PhoQ-PhoP variant library, together with: 10 µM Mg2+; baseline: high Mg2+ state, higher = stronger signaling): 0.589

AAAVRKPIVLKR
binding enrichment score (human cyclin B2; peptide binding, yeast competitive growth sequencing; peptide, Saccharomyces cerevisiae, cyclin B2-Cln2 fusion; concentration not given, peptide tiling library; direction not given): -0.42

Some of these lines once more (block 2):
P146G: 12.6%
S9V: 54.1%
